{"data": "Published values of several laboratories", "PKLR": "Pyruvate kinase PKLR (PKLR, Homo sapiens, UniProt P30613)", "note": "Lines come from different studies, so protocols differ. Several values in a cell are separate wells, animals, samples, runs or records. Numbers after ± are the reported error."}
{"Structure (SMILES)": "COC1=NS(=O)(=O)c2ccccc21", "target or system": "PKLR", "test": "enzyme activity, activator", "setting": "10 µM", "quantity": "activity", "result": "inactive"}
{"Structure (SMILES)": "O=C(CCCN1C(=O)c2cccc3cccc(c23)C1=O)NO", "target or system": "OCI-Ly1", "setting": "0.5 µM, 120 h", "quantity": "viability", "result": "100%"}
{"Structure (SMILES)": "Nc1ncnc2c1ncn2[C@@H]1O[C@H](COP(=O)(O)CP(=O)(O)OP(=O)(O)O)[C@@H](O)[C@H]1O", "target or system": "P2X purinoceptor 1 (P2RX1, Homo sapiens, UniProt P51575, E122A)", "test": "saturation binding", "setting": "130 nM", "quantity": "specific binding", "result": "1010 corrected cpm and 1520 corrected cpm and 1090 corrected cpm"}
{"Structure (SMILES)": "O=S(=O)(O)C1CCNCC1", "target or system": "SLC6A6 (Homo sapiens, UniProt P31641, G62A)", "test": "binding, microscale thermophoresis", "setting": "62.5 µM, room temperature, added: 50 nM labelled protein", "scale": "higher = more binding", "quantity": "normalised MST signal", "result": -0.0712}
{"Structure (SMILES)": "Cc1cc(O)c2c(c1)C(=O)c1cc(O)cc(O)c1C2=O", "target or system": "HepaRG co-cultured with HK-2", "test": "MTT", "setting": "16.67 µM, 24 h", "scale": "relative to: untreated control", "quantity": "cell viability", "result": "105 ± 17.9%"}
{"Structure (SMILES)": "CCS(=O)(=O)c1nc(C2CC2)cc(C(F)(F)F)n1", "target or system": "Exportin-1 (XPO1, Homo sapiens, UniProt O14980)", "test": "nuclear export, high content imaging", "test system": "HeLa Kyoto reporter", "setting": "15.8 µM, 2 h", "quantity": "cells with nuclear reporter", "result": "5.81% and 4.97%"}
{"Structure (SMILES)": "CC(C)C[C@@H]1NC(=O)[C@H](C(C)C)NC(=O)CNC(=O)[C@H](CC(N)=O)NC(=O)[C@@H]2CCCN2C(=O)[C@H](Cc2ccc(O)cc2)NC(=O)[C@H](CCCNC(=N)N)NC(=O)[C@H](C)NC(=O)[C@@H](NC(=O)[C@H](CCCCN)NC(=O)[C@@H]2CCCN2C(=O)[C@H](CO)NC(=O)[C@H](C)NC(=O)[C@@H](N)Cc2ccc(O)cc2)CSSC[C@@H](C(=O)N[C@H](C(N)=O)[C@@H](C)O)NC(=O)[C@H](C)NC1=O", "target or system": "Alpha-2-HS-glycoprotein, asialo (AHSG, Bos taurus, UniProt P12763)", "test": "binding, isothermal titration calorimetry", "setting": "pH 7.0, 25 °C, added: asialofetuin", "quantity": "-ΔG", "result": "5.04 kcal/mol"}
{"Structure (SMILES)": "CC[C@H](C)[C@@H]1NC(=O)[C@H](Cc2ccc(O)cc2)NC(=O)CSC[C@@H](C(N)=O)NC(=O)CNC(=O)[C@H](Cc2c[nH]cn2)NC(=O)[C@H](CCCNC(=N)N)NC(=O)[C@H](CC(N)=O)NC(=O)[C@@H]2CCCN2C(=O)[C@H](Cc2ccccc2)NC(=O)[C@H]([C@@H](C)O)NC(=O)CNC(=O)[C@H](CC(C)C)NC(=O)[C@@H]2CCCN2C(=O)[C@H]([C@@H](C)O)NC(=O)[C@H](CCCCN)NC1=O", "target or system": "VPS35/VPS29 (Homo sapiens, UniProt Q96QK1+Q9UBQ0)", "test": "binding, ITC", "setting": "25 °C, heterodimer", "quantity": "-TΔS", "result": "1.8 ± 1 kcal/mol"}
{"Structure (SMILES)": "Cc1cccc(N2CC(C(=O)O)CC2=O)c1 (stereo not shown)", "target or system": "YTH domain-containing protein 1 (Homo sapiens, UniProt Q96MU7)", "test": "binding, affinity selection mass spectrometry", "scale": "relative to: other proteins in batch", "quantity": "fold enrichment", "result": 0.791}
{"Structure (SMILES)": "CC(/C=C/C(=O)NO)=C\\[C@@H](C)C(=O)c1ccc(N(C)C)cc1", "target or system": "OCI-Ly1", "setting": "1 µM, 120 h", "quantity": "viability", "result": "0.93%"}
{"Structure (SMILES)": "Nc1nc2c(ncn2[C@@H]2O[C@H](COP(=O)(O)O)[C@@H](O)[C@H]2O)c(=O)[nH]1", "target or system": "GUK1 (Homo sapiens, UniProt Q16774, E72A)", "test": "enzyme activity, NADH-coupled", "setting": "250 µM", "quantity": "reaction rate", "result": "0.409 s⁻¹ and 0.462 s⁻¹ and 0.874 s⁻¹"}
{"Structure (SMILES)": "COc1cccc(CNC(=O)c2ccc(C=O)cc2)c1", "target or system": "YWHAG/RELA, phospho-Ser45 p65 peptide (Homo sapiens, UniProt P61981+Q04206)", "test": "ternary complex formation, stabilizer, fluorescence anisotropy", "quantity": "EC50", "result": "> 1000 µM"}
{"Structure (SMILES)": "Nc1ccc(C(=O)O)cc1", "target or system": "BEST1, with wild-type BEST1 (Homo sapiens, UniProt O76090, A10T)", "test": "whole-cell patch clamp", "test system": "HEK293 co-expressing WT and A10T mutant", "setting": "concentration not given, membrane potential -100 mV", "quantity": "current density", "result": "-55.3 pA/pF and -9.97 pA/pF and -14.9 pA/pF and -30.4 pA/pF and -42.1 pA/pF and -21.8 pA/pF"}
{"Structure (SMILES)": "O=C(COP(=O)(O)O)[C@@H](O)[C@H](O)[C@H](O)COP(=O)(O)O", "target or system": "PKLR", "test": "thermal proteome profiling", "test system": "HepG2 cell lysate", "setting": "concentration not given, 57 over 37 °C", "scale": "relative to: compound over control", "quantity": "thermal stability ratio", "result": "1 and 0.25 and 0.545"}
{"Structure (SMILES)": "CC[C@@]1(O)C(=O)OCc2c1cc1n(c2=O)Cc2cc3c(CN(C)C)c(O)ccc3nc2-1", "target or system": "Nuclear receptor subfamily 2 group C member 2, ligand-binding domain (Homo sapiens, UniProt P49116)", "test": "SPR imaging", "setting": "600 nM", "quantity": "koff", "result": "4.12e-05 s⁻¹"}
{"Structure (SMILES)": "O=C1c2ccccc2CCN1CCCCN1CCN(c2cccc(Cl)c2Cl)CC1", "target or system": "HTR4 (Homo sapiens, UniProt Q13639)", "test": "radioligand binding", "setting": "concentration not given", "quantity": "inhibition", "result": "24.3%"}
{"Structure (SMILES)": "O=C(Cc1ccc(-c2ccccc2)cc1)Nc1cc(C2CCC2)[nH]n1", "target or system": "IKBKB (Homo sapiens, UniProt O14920)", "test": "inhibitor", "setting": "concentration not given", "quantity": "activity", "result": "inactive"}
{"Structure (SMILES)": "CC[C@@H]1[C@H](F)C(=O)N[C@@H]1COc1nccc2cc(C(N)=O)c(OC)cc12", "target or system": "MARK4 (Homo sapiens, UniProt Q96L34)", "test": "ATP-site probe binding, ActivX profiling", "test system": "THP-1 cell lysate", "setting": "0.04 mM, Lys2 site", "quantity": "inhibition", "result": "15.9%"}
{"Structure (SMILES)": "C#Cc1cccc(Oc2ccc(-c3nn([C@@H]4CCCN(C(=O)C=C)C4)c4ncnc(N)c34)cc2)c1", "target or system": "Peroxiredoxin-like 2A (Homo sapiens, UniProt Q9BRX8)", "test": "ABPP-SILAC", "setting": "1 µM, 1 h", "scale": "relative to: DMSO", "quantity": "SILAC ratio", "result": 20}
{"note": "A few entries again:"}
{"Structure (SMILES)": "CC[C@@H]1[C@H](F)C(=O)N[C@@H]1COc1nccc2cc(C(N)=O)c(OC)cc12", "target or system": "MARK4 (Homo sapiens, UniProt Q96L34)", "test": "ATP-site probe binding, ActivX profiling", "test system": "THP-1 cell lysate", "setting": "0.04 mM, Lys2 site", "quantity": "inhibition", "result": "15.9%"}
{"Structure (SMILES)": "Cc1cccc(N2CC(C(=O)O)CC2=O)c1 (stereo not shown)", "target or system": "YTH domain-containing protein 1 (Homo sapiens, UniProt Q96MU7)", "test": "binding, affinity selection mass spectrometry", "scale": "relative to: other proteins in batch", "quantity": "fold enrichment", "result": 0.791}
